Earlier results, collected from citations in different studies.
Compare with care: the assays were run in different laboratories. ± marks the error that the study gave.
rib4: 6,7-dimethyl-8-ribityllumazine synthase (rib4, Schizosaccharomyces pombe, UniProt Q9UUB1)
Chain of UniProt Q9UUB1 (whole entry, looked up): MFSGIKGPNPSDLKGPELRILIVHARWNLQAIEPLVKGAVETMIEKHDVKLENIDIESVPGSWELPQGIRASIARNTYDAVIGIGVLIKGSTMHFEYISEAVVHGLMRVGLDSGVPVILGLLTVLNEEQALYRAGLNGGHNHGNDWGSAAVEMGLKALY
EGFR L858R: Epidermal growth factor receptor (EGFR, Homo sapiens, UniProt P00533, L858R)
Chain of UniProt O96013 (whole entry, looked up): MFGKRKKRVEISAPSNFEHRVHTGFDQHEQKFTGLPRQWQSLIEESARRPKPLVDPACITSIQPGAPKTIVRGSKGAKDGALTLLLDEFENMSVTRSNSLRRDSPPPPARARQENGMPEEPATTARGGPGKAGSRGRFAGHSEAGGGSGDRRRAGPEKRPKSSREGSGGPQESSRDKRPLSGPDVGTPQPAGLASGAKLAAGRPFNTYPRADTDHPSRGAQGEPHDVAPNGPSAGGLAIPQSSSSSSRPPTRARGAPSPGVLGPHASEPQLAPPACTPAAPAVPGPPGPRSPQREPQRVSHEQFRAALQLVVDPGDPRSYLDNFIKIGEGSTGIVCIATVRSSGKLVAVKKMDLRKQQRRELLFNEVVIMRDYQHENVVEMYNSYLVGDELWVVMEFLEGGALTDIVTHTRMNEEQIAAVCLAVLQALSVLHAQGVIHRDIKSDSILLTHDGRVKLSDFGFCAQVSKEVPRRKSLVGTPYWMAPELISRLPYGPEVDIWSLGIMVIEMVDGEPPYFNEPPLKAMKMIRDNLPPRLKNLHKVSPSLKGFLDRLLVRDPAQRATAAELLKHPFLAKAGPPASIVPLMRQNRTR
Chain of UniProt Q16222 (whole entry, looked up): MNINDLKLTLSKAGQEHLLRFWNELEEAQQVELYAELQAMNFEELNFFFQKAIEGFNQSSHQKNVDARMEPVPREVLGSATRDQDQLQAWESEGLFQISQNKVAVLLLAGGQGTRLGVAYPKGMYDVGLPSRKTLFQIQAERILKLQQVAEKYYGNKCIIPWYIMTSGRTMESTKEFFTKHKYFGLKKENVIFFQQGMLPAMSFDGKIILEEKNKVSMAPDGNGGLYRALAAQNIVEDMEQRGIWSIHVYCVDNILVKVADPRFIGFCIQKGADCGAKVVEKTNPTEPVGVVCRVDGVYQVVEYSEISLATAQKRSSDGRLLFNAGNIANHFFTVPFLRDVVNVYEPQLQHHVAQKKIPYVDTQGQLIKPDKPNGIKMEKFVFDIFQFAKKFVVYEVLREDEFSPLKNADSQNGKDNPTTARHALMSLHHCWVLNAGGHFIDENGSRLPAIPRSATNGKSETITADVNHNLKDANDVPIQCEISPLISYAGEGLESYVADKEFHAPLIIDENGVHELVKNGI
Chain of UniProt Q00194 (whole entry, looked up): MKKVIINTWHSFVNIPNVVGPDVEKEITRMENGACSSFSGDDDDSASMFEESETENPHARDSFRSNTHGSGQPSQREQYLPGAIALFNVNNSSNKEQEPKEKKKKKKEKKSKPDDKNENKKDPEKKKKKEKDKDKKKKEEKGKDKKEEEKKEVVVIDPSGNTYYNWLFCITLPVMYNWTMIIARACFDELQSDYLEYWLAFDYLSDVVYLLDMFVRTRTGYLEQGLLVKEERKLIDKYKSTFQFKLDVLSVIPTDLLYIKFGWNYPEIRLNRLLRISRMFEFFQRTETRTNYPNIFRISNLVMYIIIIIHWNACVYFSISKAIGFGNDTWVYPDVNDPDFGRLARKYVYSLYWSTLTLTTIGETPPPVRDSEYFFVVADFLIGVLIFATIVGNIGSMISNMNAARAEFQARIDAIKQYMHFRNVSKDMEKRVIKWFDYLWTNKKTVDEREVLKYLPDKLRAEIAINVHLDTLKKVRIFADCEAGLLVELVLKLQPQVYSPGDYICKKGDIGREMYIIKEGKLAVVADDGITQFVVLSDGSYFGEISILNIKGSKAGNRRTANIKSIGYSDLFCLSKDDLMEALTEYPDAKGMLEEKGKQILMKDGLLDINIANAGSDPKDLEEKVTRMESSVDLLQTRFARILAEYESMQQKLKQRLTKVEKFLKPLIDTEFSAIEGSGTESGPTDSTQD
Chain of UniProt A7T1N0 (whole entry, looked up): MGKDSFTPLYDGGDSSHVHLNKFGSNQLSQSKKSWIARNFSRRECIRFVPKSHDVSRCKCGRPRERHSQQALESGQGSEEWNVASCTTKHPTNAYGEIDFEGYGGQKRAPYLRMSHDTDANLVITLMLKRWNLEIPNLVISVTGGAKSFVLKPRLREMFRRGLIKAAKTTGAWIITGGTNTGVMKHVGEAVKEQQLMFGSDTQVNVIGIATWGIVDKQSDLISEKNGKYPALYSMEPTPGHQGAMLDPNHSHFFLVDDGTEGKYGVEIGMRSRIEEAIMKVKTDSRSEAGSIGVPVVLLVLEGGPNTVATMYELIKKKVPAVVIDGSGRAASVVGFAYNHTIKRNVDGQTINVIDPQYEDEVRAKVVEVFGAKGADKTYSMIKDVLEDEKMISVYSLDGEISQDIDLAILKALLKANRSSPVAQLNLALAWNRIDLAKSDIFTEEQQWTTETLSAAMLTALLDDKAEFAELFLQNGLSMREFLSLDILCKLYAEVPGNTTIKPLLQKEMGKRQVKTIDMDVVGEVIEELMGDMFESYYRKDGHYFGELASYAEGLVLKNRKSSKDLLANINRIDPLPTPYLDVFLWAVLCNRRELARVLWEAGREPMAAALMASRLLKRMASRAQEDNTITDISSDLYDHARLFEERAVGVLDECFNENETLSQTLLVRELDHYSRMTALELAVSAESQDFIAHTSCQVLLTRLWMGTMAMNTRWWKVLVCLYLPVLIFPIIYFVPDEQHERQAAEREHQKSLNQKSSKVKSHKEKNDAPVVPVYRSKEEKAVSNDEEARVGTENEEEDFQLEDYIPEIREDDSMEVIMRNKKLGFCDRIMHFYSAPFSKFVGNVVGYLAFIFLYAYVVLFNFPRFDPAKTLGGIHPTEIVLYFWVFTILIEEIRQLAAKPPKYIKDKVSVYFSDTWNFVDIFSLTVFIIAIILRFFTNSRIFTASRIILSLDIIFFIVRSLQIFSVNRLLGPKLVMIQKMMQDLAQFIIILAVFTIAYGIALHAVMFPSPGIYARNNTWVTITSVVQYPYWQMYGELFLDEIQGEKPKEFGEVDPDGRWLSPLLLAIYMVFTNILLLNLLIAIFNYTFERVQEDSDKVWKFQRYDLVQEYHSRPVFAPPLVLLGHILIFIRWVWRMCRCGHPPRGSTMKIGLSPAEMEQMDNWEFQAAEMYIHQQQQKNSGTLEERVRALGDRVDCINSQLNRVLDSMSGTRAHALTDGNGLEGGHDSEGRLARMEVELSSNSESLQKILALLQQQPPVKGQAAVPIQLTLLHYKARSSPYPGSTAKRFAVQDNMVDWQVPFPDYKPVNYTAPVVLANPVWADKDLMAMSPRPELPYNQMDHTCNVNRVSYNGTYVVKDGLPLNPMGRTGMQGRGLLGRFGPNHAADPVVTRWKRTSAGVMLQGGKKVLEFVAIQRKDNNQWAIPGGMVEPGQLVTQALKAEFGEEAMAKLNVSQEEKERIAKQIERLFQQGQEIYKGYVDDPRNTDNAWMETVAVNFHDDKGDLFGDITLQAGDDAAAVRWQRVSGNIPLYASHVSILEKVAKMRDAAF
Chain of UniProt P9WHE9 (whole entry, looked up): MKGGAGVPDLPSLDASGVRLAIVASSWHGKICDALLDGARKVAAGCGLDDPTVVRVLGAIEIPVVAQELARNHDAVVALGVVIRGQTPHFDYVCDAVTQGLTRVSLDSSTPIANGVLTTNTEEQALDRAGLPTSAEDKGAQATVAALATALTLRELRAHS
Chain of UniProt Q5U3Y7 (whole entry, looked up): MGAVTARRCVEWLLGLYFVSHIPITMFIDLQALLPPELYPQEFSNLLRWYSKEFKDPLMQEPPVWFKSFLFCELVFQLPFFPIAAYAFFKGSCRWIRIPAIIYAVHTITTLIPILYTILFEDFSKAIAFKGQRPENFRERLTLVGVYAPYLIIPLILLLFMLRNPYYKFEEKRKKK
Chain of UniProt P16442 (whole entry, unmodified, looked up): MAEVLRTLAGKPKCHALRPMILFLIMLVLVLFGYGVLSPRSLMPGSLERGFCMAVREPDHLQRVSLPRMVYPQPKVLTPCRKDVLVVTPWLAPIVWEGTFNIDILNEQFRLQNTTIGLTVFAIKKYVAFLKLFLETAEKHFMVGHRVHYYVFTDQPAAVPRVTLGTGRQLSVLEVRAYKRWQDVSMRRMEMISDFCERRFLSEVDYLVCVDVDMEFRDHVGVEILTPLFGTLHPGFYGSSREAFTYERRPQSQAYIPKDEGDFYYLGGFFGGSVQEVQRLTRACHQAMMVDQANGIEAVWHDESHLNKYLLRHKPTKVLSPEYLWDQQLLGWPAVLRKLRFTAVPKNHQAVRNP

The kcat of `CCOC(=O)C(=O)Nc1c(NC[C@H](O)[C@H](O)[C@H](O)CO)[nH]c(=O)[nH]c1=O` is reported as 0.167 s⁻¹ (rib4; enzyme kinetics; pH 7.0).
The –TΔS of `OCCn1cc(CO[C@@H]2O[C@H](CO)[C@H](O)[C@H](O)[C@H]2O)nn1` is reported as 8.37 kJ/mol (lecA (Pseudomonas aeruginosa, UniProt Q05097); ITC).
With `CC(=O)NC1C(O)C(F)C(F)(C(=O)O)OC1C(O)C(O)CO` (stereo not shown) the inactivation concentration was 5 mM (Trypanosoma cruzi trans-sialidase; inhibitor).
The Ks of `O=c1[nH]c(NC[C@H](O)[C@H](O)[C@H](O)CO)c([N+](=O)[O-])c(=O)[nH]1` is reported as 52 ± 6 µM (ribH (Mycobacterium tuberculosis, UniProt P9WHE9); enzyme kinetics; pH 7.0, with: substrate 2 fixed, 1 varied; lower = tighter substrate binding).
With `CC1=C(/C=C/C(C)=C/C=C/C(C)=C/C=O)C(C)(C)CCC1` the Hill coefficient was 1.4 (CNGA1 (Bos taurus, UniProt Q00194)).
`CCCCCCCCO[C@@H]1O[C@H](CO)[C@H](O)[C@H](O[C@H]2O[C@H](CO)[C@H](O)[C@H](O)[C@H]2O)[C@H]1O[C@@H]1O[C@@H](C)[C@@H](O)[C@@H](O)[C@@H]1O`: binding “no binding” (ABO (Homo sapiens, UniProt P16442, G235S/G268A/L266M/R176G); mass spectrometry; concentration not given, with: UDP).
`COc1cc2c(cc1OC)CN(CCCCn1ccc3c(OCCF)cccc31)CC2` gave a selectivity ratio of 708 (Tmem97 (Rattus norvegicus, UniProt Q5U3Y7); binding; baseline: Ki sigma1 over Ki sigma2).
`CO[C@H]1O[C@H](CNS(=O)(=O)c2c(C)cc(C)cc2C)[C@@H](O)[C@H](O)[C@@H]1O` gave a −TΔS of 1.67 kJ/mol (lecB (Pseudomonas aeruginosa, UniProt Q9HYN5); binding, ITC).
`C=CC(=O)N1CCC[C@@H](n2nc(-c3cn(C)c4ccccc34)c3c(N)ncnc32)C1` has a kinact of 0.17 ± 0.08 min⁻¹ (EGFR L858R).
With `Nc1ncnc2c1ncn2C1OC(COP(=O)(O)OP(=O)(O)OCC2OC(O)C(O)C2O)C(O)C1O` (stereo not shown) the Km was 4.1 ± 0.6 µM (TRPM2, NUDT9-H domain (Nematostella vectensis, UniProt A7T1N0); hydrolysis, substrate).
`O=c1ccn(C2OC(COP(=O)(O)OP(=O)(O)OP(=O)(O)O)C(O)C2O)c(=O)[nH]1` (stereo not shown) has a Km of 53 µM (UAP1 (Homo sapiens, UniProt Q16222); substrate).
With `Cc1cccc(C)c1NC(=O)C1CCN(Cc2ccccc2)C1` (stereo not shown) the Hill coefficient was 1.1 ± 0.1 (SCN4A (Homo sapiens, UniProt P35499); sodium current block, in vitro; phasic block, 10 Hz).
`CC(C)C(=O)Nc1c(NC[C@H](O)[C@H](O)[C@H](O)CO)[nH]c(=O)[nH]c1=O` has a kcat of 0.0158 ± 0.000333 s⁻¹ (rib4; enzyme kinetics; pH 7.0).
For `CCOC(=O)C(NC(=O)CN1C(=O)/C(=C/c2ccc3c(c2)OCO3)SC1=S)C(C)C` (stereo not shown), the inhibition was 30 ± 23.9% (α-glucosidase; enzyme activity; 100 µM).
The selectivity ratio of `C[C@H]1CN(C(=O)c2nc(Nc3cc(C4CC4)[nH]n3)c3cc(Cl)ccc3n2)CCN1` is reported as 346 fold (PAK4 (Homo sapiens, UniProt O96013); baseline: PAK1 over PAK4).
`C=CC(=O)N1CCC[C@@H](n2nc(-c3cccc4ccccc34)c3c(N)ncnc32)C1` has a kinact of 0.25 ± 0.06 min⁻¹ (EGFR L858R).
